{"data": "Measured values from different studies", "note": "Protocols differ between the studies behind these lines."}
{"Compound": "CC[C@H](C)[C@H](NC(=O)CNC(=O)[C@H](C)NC(=O)[C@@H]1CCCN1C(=O)CNC(=O)[C@H](C)NC(=O)[C@H](CCC(=O)O)NC(=O)[C@H](C)NC(=O)[C@H](CC(=O)O)NC(=O)[C@H](C)NC(=O)[C@H](CCC(=O)O)NC(=O)[C@H](C)NC(=O)[C@H](CCC(=O)O)NC(=O)[C@@H]1CCCN1C(=O)[C@H](CCC(=O)O)NC(=O)CNC(C)=O)C(=O)NCC(=O)N[C@@H](C)C(=O)N[C@H](C(=O)N[C@@H](CC(C)C)C(=O)N[C@@H](CCCCN)C(=O)N[C@H](C(=O)N[C@@H](CC(C)C)C(=O)N[C@H](C(=O)N[C@H](C(=O)NCC(=O)N[C@@H](CC(C)C)C(=O)N1CCC[C@H]1C(=O)N[C@@H](C)C(=O)N[C@@H](CC(C)C)C(=O)N[C@H](C(=O)N[C@@H](CO)C(=O)N[C@@H](Cc1c[nH]c2ccccc12)C(=O)N[C@H](C(=O)N[C@@H](CCCCN)C(=O)N[C@@H](CCCNC(=N)N)C(=O)N[C@@H](CCCCN)C(=O)N[C@@H](CCCNC(=N)N)C(=O)N[C@@H](CCC(N)=O)C(=O)N[C@@H](CCC(N)=O)C(N)=O)[C@@H](C)CC)[C@@H](C)CC)[C@@H](C)O)[C@@H](C)O)C(C)C)C(C)C", "cell line": "MCF7 FAP-positive and FAP-negative", "assay": "cytotoxicity", "scale": "relative to: IC50 FAP-negative over FAP-positive", "selectivity ratio": "~8 fold"}
{"Compound": "CNC(=O)c1cc(Oc2ccc(NC(=O)c3ccc(-c4ccc(OC(=O)CCC(=O)OC5OC6OC7(C)CCC8C(C)CCC(C5C)C68OO7)cc4)cn3)cc2)ccn1 (stereo not drawn)", "cell line": "HepG2 and LO2", "assay": "cell viability, MTT", "conditions": "72 h", "scale": "relative to: IC50 LO2 over IC50 HepG2", "selectivity ratio": 5.5}
{"Compound": "C[C@@H](N)[C@H](O)CCCCCCCC(=O)CCCCCCCCCCCCCC[C@@H](O[C@@H]1O[C@H](CO)[C@H](O)[C@H](O)[C@H]1O)[C@H](N)CO", "cell line": "HCC70", "scale": "relative to: IC50 MCF-12A over IC50 HCC70", "selectivity ratio": 2.4}
{"Compound": "CNC(=O)c1cc(Oc2ccc(NC(=O)c3ccc(-c4cccc(OC(=O)CCC(=O)OC5OC6OC7(C)CCC8C(C)CCC(C5C)C68OO7)c4)cn3)cc2)ccn1 (stereo not drawn)", "cell line": "HepG2 and LO2", "assay": "cell viability, MTT", "conditions": "72 h", "scale": "relative to: IC50 LO2 over IC50 HepG2", "selectivity ratio": 6.8}
{"Compound": "CC[C@H]1OC(=O)[C@H](C(C)C)NC(=O)[C@H](C)OC(=O)[C@@H](C(C)C)NC(=O)[C@@H](C(C)C)OC(=O)[C@H](C(C)C)NC(=O)[C@H](C)OC(=O)[C@@H](C(C)C)NC(=O)[C@@H](C(C)C)OC(=O)[C@H](C(C)C)NC(=O)[C@H](C)OC(=O)[C@@H](C(C)C)NC1=O", "cell line": "C6", "assay": "cell growth, SRB", "scale": "relative to: IC50 in HA over IC50 in C6", "selectivity ratio": 30}
{"Compound": "CNC(=O)c1cc(Oc2ccc(NC(=O)c3ccc(-c4ccccc4OC(=O)CCC(=O)OC4OC5OC6(C)CCC7C(C)CCC(C4C)C57OO6)cn3)cc2)ccn1 (stereo not drawn)", "cell line": "HepG2 and LO2", "assay": "cell viability, MTT", "conditions": "72 h", "scale": "relative to: IC50 LO2 over IC50 HepG2", "selectivity ratio": "> 6.1"}
{"Compound": "CC[C@@H](C(=O)[C@@H](C)[C@@H](O)[C@H](C)[C@@H]1O[C@@H]([C@@H](CC)C(=O)O)CC[C@@H]1C)[C@H]1O[C@]2(C=C[C@H](NCC(C)C)[C@]3(CC[C@@](C)([C@H]4CC[C@](O)(CC)[C@H](C)O4)O3)O2)[C@H](C)C[C@@H]1C", "cell line": "HMLER CD24low/CD44high", "assay": "cell viability, CellTiter-Blue", "conditions": "72 h", "scale": "relative to: IC50 HMLER CD24high/CD44low over CD24low/CD44high", "selectivity ratio": 11}
{"Compound": "Cc1ccc(C(C)C)cc1.[Au][S]C1=NCCS1.[Cl][Ru][Cl].c1ccc(P(CP(c2ccccc2)c2ccccc2)c2ccccc2)cc1", "cell line": "L929 and HCT-116", "assay": "trypan blue exclusion", "scale": "relative to: IC50 L929 over IC50 HCT-116", "selectivity ratio": 7.5}
{"Compound": "CC[C@@H](C(=O)[C@@H](C)[C@@H](O)[C@H](C)[C@@H]1O[C@@H]([C@@H](CC)C(=O)O)CC[C@@H]1C)[C@H]1O[C@]2(C=C[C@H](NCc3ccc(C)cc3)[C@]3(CC[C@@](C)([C@H]4CC[C@](O)(CC)[C@H](C)O4)O3)O2)[C@H](C)C[C@@H]1C", "cell line": "HMLER CD24low/CD44high", "assay": "cell viability, CellTiter-Blue", "conditions": "72 h", "scale": "relative to: IC50 HMLER CD24high/CD44low over CD24low/CD44high", "selectivity ratio": 12.7}
{"Compound": "C[C@H](N)[C@@H](CCCCCCCCCCCCCCC(=O)CCCCCCC[C@@H](O)[C@@H](C)N)O[C@@H]1O[C@H](CO)[C@H](O)[C@H](O)[C@H]1O", "cell line": "HCC70", "scale": "relative to: IC50 MCF-12A over IC50 HCC70", "selectivity ratio": 7.8}
{"Compound": "Cc1ccc(C(C)C)cc1.[Cl][Ru]([Cl])[P](CP(c1ccccc1)c1ccccc1)(c1ccccc1)c1ccccc1", "cell line": "L929 and HCT-116", "assay": "trypan blue exclusion", "scale": "relative to: IC50 L929 over IC50 HCT-116", "selectivity ratio": 1.8}
{"Compound": "CCCCCN(CCCCC)[C@H]1C=C[C@]2(O[C@H]([C@@H](CC)C(=O)[C@@H](C)[C@@H](O)[C@H](C)[C@@H]3O[C@@H]([C@@H](CC)C(=O)O)CC[C@@H]3C)[C@@H](C)C[C@H]2C)O[C@@]12CC[C@@](C)([C@H]1CC[C@](O)(CC)[C@H](C)O1)O2", "cell line": "HMLER CD24low/CD44high", "assay": "cell viability, CellTiter-Blue", "conditions": "72 h", "scale": "relative to: IC50 HMLER CD24high/CD44low over CD24low/CD44high", "selectivity ratio": 7.7}
{"note": "Some of these lines once more:"}
{"Compound": "CC[C@@H](C(=O)[C@@H](C)[C@@H](O)[C@H](C)[C@@H]1O[C@@H]([C@@H](CC)C(=O)O)CC[C@@H]1C)[C@H]1O[C@]2(C=C[C@H](NCc3ccc(C)cc3)[C@]3(CC[C@@](C)([C@H]4CC[C@](O)(CC)[C@H](C)O4)O3)O2)[C@H](C)C[C@@H]1C", "cell line": "HMLER CD24low/CD44high", "assay": "cell viability, CellTiter-Blue", "conditions": "72 h", "scale": "relative to: IC50 HMLER CD24high/CD44low over CD24low/CD44high", "selectivity ratio": 12.7}
{"Compound": "C[C@H](N)[C@@H](CCCCCCCCCCCCCCC(=O)CCCCCCC[C@@H](O)[C@@H](C)N)O[C@@H]1O[C@H](CO)[C@H](O)[C@H](O)[C@H]1O", "cell line": "HCC70", "scale": "relative to: IC50 MCF-12A over IC50 HCC70", "selectivity ratio": 7.8}
